Assay results collected from several papers.
A part holds a random share of what one study measured. Changes are numbered by the printed parent chain.

Sample 1 — method: RNA Bind-n-Seq; molecule type: RNA; medium: in vitro; concentration: not given; baseline: input RNA pool; direction: higher = stronger binding
Target: RING finger protein unkempt homolog, zinc fingers 1-6, GST-SBP tag (UNK, Homo sapiens, UniProt Q9C0B0, residues 30-357)
Notes: RNA with constant flanks, human and mouse sites, ends assumed
Residues (chain): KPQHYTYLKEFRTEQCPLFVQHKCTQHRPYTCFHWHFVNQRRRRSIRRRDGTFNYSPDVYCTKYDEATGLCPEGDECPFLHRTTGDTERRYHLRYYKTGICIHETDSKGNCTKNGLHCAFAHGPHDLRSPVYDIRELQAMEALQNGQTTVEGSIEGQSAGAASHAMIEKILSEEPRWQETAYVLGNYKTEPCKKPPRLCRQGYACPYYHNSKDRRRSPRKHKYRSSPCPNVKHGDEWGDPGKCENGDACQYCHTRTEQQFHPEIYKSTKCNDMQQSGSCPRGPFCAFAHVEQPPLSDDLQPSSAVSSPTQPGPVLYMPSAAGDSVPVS
`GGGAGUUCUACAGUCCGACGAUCCUUCCAAAAGCCUGCUUAUACCCAGCUGUCUCUGCAGUAUAUGGCAACACAGAAGUGACUUUGGUUUAUCUUGGAAAACCUCUGGAUGGAUGACAGUGACUUUCUGGAAAGAAGAAGAGUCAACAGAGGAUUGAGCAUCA` has a bound/input enrichment of 0.248 ratio.
For `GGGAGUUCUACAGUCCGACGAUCUGCAGGAAGGAAAUUGACGAACACGUGACGCGGUCGGGCGGACCACUGCAGACUGAGCGGUGGACCGAAUUGGGACCGCUGGCUUAUAAGCGAUCAUGUUUCUCCAGUAUUACCUCAACGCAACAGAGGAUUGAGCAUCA`, the bound/input enrichment was 0.0702 ratio.
With `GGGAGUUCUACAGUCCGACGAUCCCUCUGUUUAGAAGUGUAGGCAAUACUAUUGAUCCUGUCAUUCUUUUCCAAAAAAUGGGAGUAGGUAAACUUGAGAUGUAUGUGCUUAAUCCAGUCAAGAGCAGCAAGGAAAUGCAGUAUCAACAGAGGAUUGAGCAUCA` the bound/input enrichment was 1.03 ratio.
`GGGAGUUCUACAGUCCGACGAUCCUGUAGUCCUCAGAAAGGAAGCUCCAGGACAUUUCAUGACUAUAAUGCAUGCACUAUUUAUAUAGACUGACCUGGCUUUAAAAGAUGGAGCCUGGCAAGUUCCUCACAUAAUCAAUGUAUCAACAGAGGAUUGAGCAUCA` has a bound/input enrichment of 0.145 ratio.
`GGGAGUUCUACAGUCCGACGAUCUGCCAGAGUAUCAACCUCUUCGUGGAAAGCUUCCUCAAAAUGGUGGCCAAGCUGCUGGAGUCGGAGAAGCCGAACCUGCAGAUCCUUGGCACCAACUCGUUUGUGAAGUUCGCCAACAUUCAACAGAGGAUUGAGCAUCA` has a bound/input enrichment of 0.0552 ratio.

Sample 2 — method: DHFR PCA, deep sequencing; medium: yeast; together with: (+)-ABA 0.0091 µM; baseline: wild-type fitted maximum; direction: higher = stronger binding
Target: ABI1, truncated, D143A, DHFR fusion (Arabidopsis thaliana)
Notes: methotrexate growth selection, single substitutions
Parent: PYL1, truncated, DHFR fusion (Arabidopsis thaliana); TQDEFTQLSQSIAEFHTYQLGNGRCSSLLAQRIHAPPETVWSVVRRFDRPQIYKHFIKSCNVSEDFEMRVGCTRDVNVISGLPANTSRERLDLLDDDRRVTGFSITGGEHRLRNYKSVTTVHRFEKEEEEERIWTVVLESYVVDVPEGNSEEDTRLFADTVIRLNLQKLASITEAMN
`D75M` — result for “relative binding score”: 26.4%.
`V78A` — result for “relative binding score”: 10.3%.
Under “relative binding score”, `N85M` is recorded as 69%.
For `K126P`, “relative binding score” read 55.4%.
For `F47N`, “relative binding score” read -3.24%.
`L166D`: “relative binding score” -1.9%.

Sample 3 — target: CCND1, cyclin fold, Cln2 fusion (human); method: yeast growth competition, sequencing; medium: yeast; notes: weak parent motif; baseline: not given; direction: higher = stronger binding
Parent: BRCA2 docking peptide (human); PSIKRNLLNEFDR
Under “normalised enrichment score”, `PSIKRNLLNTFDR [E10T]` is recorded as -0.722.
`PSIKRNLLNCFDR [E10C]`: “normalised enrichment score” 0.167.
Under “normalised enrichment score”, `PSIKRNLLNEFDK [R13K]` is recorded as 0.12.
For `PSIKRNLLNESDR [F11S]`, “normalised enrichment score” read -0.625.
Under “normalised enrichment score”, `PSIPRNLLNEFDR [K4P]` is recorded as 0.312.

Mixed results
With `PhoQ, residues 284 288 289 292 302 303 SIHMAM` the fold induction was 1.93 (PhoP, residues 12 14 15 18 19 AWHSL (Escherichia coli, UniProt P23836); Sort-seq, measured: YFP reporter; E. coli; PhoQ-PhoP variant library, together with: 10 µM Mg2+; baseline: high Mg2+ state, higher = stronger signaling).
